Measured values collected from several papers.
A part holds a random share of what one study measured. Changes are numbered by the printed parent chain.

Block 1 — technique: aptamer microarray, sandwich; molecule type: DNA with 2'F-ANA; sample: in vitro; concentration: 200 nM; with: Cy3 exosite-II aptamer, 400 nM; reading: higher = stronger binding; endpoint: mean fluorescence intensity; oligonucleotide: GGTTGGTGTGGTTGG
Target: Prothrombin, mature alpha-thrombin (F2, Homo sapiens, UniProt P00734)
Notes: whole 15-mer aptamer, many near background
2'F-ANA at 7 8 13 15: 575 a.u.
2'F-ANA at 3 5 8 10 11 13: 72.8 a.u.
2'F-ANA at 1 2 3 4 5 6 7 9 12 14: 50 a.u.
2'F-ANA at 3 4 5 7 9 10 11 12 13 14: 53 a.u.
2'F-ANA at 1 6 7 8 10 13 14 15: 48.1 a.u.
2'F-ANA at 1 3 4 5 6 8 11 12 13: 112 a.u.
2'F-ANA at 1 4 9 10 11 13: 52.7 a.u.
2'F-ANA at 1 2 3 4 5 6 8 9 10 11 14: 52.2 a.u.

Block 2 — technique: universal PBM; molecule type: double-stranded DNA, one strand shown; sample: in vitro; concentration: 600 nM; reading: higher = stronger binding; endpoint: E-score
Target: Sal-like protein 4, full length isoform A (SALL4, Homo sapiens, UniProt Q9UJQ4, residues 1-1053)
Sequence of UniProt Q9UJQ4 (whole entry, looked up): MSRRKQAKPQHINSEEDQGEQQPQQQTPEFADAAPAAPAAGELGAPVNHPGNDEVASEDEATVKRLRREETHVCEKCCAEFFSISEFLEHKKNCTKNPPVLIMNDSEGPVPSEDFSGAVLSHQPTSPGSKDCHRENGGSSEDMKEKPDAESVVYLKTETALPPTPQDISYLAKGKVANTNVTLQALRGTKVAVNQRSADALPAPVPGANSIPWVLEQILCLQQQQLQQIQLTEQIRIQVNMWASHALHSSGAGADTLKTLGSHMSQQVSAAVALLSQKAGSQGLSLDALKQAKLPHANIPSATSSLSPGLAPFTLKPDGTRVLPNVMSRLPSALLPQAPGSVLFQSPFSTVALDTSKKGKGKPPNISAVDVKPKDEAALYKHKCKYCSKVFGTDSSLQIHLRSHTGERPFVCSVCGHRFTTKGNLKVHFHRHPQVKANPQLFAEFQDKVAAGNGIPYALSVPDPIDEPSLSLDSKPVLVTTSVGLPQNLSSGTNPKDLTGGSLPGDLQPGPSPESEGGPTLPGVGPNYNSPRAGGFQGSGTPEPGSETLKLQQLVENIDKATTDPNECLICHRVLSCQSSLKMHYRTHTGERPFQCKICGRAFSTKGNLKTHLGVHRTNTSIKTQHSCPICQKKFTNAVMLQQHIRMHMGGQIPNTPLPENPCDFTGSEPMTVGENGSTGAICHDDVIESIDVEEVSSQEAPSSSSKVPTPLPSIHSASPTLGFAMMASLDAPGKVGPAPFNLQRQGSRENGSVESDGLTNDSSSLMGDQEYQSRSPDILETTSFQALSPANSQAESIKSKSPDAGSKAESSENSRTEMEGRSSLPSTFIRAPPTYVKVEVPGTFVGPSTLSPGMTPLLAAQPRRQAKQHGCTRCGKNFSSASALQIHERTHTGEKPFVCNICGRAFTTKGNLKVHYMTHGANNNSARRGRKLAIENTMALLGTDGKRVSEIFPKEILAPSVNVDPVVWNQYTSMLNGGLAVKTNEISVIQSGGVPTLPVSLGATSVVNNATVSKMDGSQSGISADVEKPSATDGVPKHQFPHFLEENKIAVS
Notes: 8-mer, flanks averaged, mean of replicates
AAAAGGCG: -0.104
CGGCCACC: -0.274
AAAGAGCA: 0.0609
AAAATAAC: 0.338
CTGCATTC: -0.0165
CGTCAGTA: 0.00666
GCTACGCC: -0.286
GACTATAC: 0.137

Block 3 — technique: RNA Bind-n-Seq; molecule type: RNA; sample: in vitro; concentration: 20 nM; notes: 6-mer, flanks averaged, single round; with: 150 mM LiCl; reference: input library; reading: higher = stronger binding; endpoint: 6-mer enrichment (R)
Target: TAR DNA-binding protein 43, full length, His tag (TARDBP, Homo sapiens, UniProt Q13148, residues 1-414)
UGCUAG: 0.99
GGCAGA: 1.01
CCAUAC: 0.88
GCUGGC: 0.991
GACUUG: 0.981
AAGGUC: 0.841
AAAGCG: 0.884
GUAAAA: 0.905

Further values, each from its own experiment
Starting sequence: PafA, mature enzyme, eGFP fusion (Elizabethkingia meningoseptica, UniProt Q9KJX5); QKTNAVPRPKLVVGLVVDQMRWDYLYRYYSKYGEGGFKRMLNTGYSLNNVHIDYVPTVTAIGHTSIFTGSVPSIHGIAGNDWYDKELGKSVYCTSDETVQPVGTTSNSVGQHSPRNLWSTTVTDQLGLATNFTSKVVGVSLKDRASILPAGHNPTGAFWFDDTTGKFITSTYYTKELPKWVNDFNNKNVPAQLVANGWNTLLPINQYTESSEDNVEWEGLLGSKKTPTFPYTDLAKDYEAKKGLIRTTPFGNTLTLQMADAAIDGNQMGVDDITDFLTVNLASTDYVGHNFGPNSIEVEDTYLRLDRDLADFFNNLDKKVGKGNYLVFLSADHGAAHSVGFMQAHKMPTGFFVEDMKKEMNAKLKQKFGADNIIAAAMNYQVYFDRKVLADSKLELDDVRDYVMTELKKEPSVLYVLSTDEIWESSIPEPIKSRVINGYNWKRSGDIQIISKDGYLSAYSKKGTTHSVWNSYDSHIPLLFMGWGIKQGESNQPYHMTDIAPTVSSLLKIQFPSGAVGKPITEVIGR
T502G  phosphate dissociation constant (inorganic phosphate, free oxyanion; microfluidic competitive inhibition; in vitro, cell-free expressed; not given, derived from inhibition constants, unchanged parent 615000 nM; lower = stronger binding): 578 µM

Excerpt of the above (block 1):
2'F-ANA at 7 8 13 15: 575 a.u.
2'F-ANA at 3 5 8 10 11 13: 72.8 a.u.
